Experimental data from different studies.
± gives the spread as reported.

SMILES	test	test system	conditions	how to read	AUC(0-inf)
CC(C)n1c(Nc2cccnc2)nc2cnc(Nc3ccc(N4CCN(C)CC4)cc3)nc21	–	human, male, plasma	oral, 100 mg, day 1, single dose alone	–	902 ng·h/mL
COc1c(N2C[C@@H]3CCCN[C@@H]3C2)c(F)cc2c(=O)c(C(=O)O)cn(C3CC3)c12	–	human, plasma	oral, 400 mg, day 5	–	28100 ± 5870 ng·h/mL
Cc1ccc(C(=O)N(CCCN)C(c2nc3snc(C)c3c(=O)n2Cc2ccccc2)C(C)C)cc1 (centres unmarked)	–	human	intravenous, 13 mg/day, course day 3 following induction	–	571 ng·h/mL
CN(C)C(=O)c1cc2cnc(Nc3ccc(N4CCNCC4)cn3)nc2n1C1CCCC1	–	human, severe renal impairment, plasma	oral, 400 mg, single dose, adjusted geometric mean	–	10900 ng·h/mL
Cn1cncc1[C@@](N)(c1ccc(Cl)cc1)c1ccc2c(c1)c(-c1cccc(Cl)c1)cc(=O)n2C	–	human, plasma	oral, dose not given, added: ranitidine	–	322 ng·h/mL
Nc1ccn([C@@H]2O[C@H](CO)[C@@H](O)C2(F)F)c(=O)n1	–	human, plasma	dose not given, mean, before paricalcitol	–	17500 ng·h/mL
Cl.[2H]C([2H])([2H])CC(=O)c1cnc(NC(=O)C2CC2)cc1Nc1cccc(-c2ncn(C([2H])([2H])[2H])n2)c1OC	–	human, fasted, plasma	oral, 25 mg, single dose, liquid formulation	–	1850 ng·h/mL
N#CN1C[C@H](n2nc(-c3ccc(Oc4ccc(Cl)cn4)cc3)c(C(N)=O)c2N)CCC12CC2	–	human, fed, plasma	oral, 600 mg	–	20400 ± 7160 ng·h/mL
CCNCCCNC/C=C\CNCCCNCC	LC-MS/MS	human cancer patients, plasma	intravenous infusion 60 min, 200 mg, median, cycle 1	–	1330 ng·h/mL
CNC(=O)c1c(C)oc2cc(Oc3ncnc4cc(OC)c(OC)cc34)ccc12	–	human, normal hepatic function (NCI), plasma	oral, dose not given, single dose	–	5300 ng·h/mL
NC(=O)c1[nH]cnc1N	–	human patients, plasma	IV infusion over 1 h, 1000 mg/m^2 DTIC, cycle 1 day 1, DTIC alone	–	25500 ng·h/mL
Cn1c(=O)oc2ccc(-c3ccc(C[C@@H](C#N)NC(=O)[C@@H]4CNCCCO4)cc3)cc21	–	human, normal renal function, plasma	oral, 25 mg single dose, mean	–	3510 ng·h/mL
CN(C(=O)C(C)(C)c1cc(C(F)(F)F)cc(C(F)(F)F)c1)c1cnc(N2C[C@H]3COCCN3C[C@H]2CO)cc1-c1ccc(F)cc1[14CH3]	item: total radioactivity	human, plasma	oral, 120 mg	–	21700 ng equiv·h/mL
CNC(=O)n1ccc2cc(Oc3ccnc(NC(=O)c4ccc(C5CCN(CCO)CC5)cc4)c3)c(OCCOC)cc21	–	healthy human, plasma	oral, 35 mg, geometric mean, alone	–	108 ng·h/mL
N#Cc1cccc(-c2ccc3ncc(-c4cc(F)cc(F)c4)c(N4CCC(N)CC4)c3c2)c1O	–	human, plasma	oral, 20 mg single dose, geometric mean	–	2700 ng·h/mL
C[C@@H](Oc1ccc(S(C)(=O)=O)cc1C(=O)N1C[C@@H]2C[C@]2(c2cc(C(F)(F)F)on2)C1)C(F)(F)F	–	elderly humans, plasma	oral, 50 mg once daily, single dose, geometric mean	–	16 µM·h
C=CC(=O)NC1CCN(c2ncc3ncnc(Nc4ccc(Oc5ccc6c(c5)ncn6C)c(C)c4)c3n2)CC1	–	human male, plasma	oral, 60 mg single dose, geometric mean	–	12.3 µM·h
N[C@]1(C(=O)O)[C@H]2[C@@H](C[C@@H]1F)[C@@H]2C(=O)O	–	human, both sexes, plasma	oral, 10 mg, fed, single dose	–	383 ng·h/mL
Cn1nnc2c(C(N)=O)ncn2c1=O	–	human patients, plasma	oral, 30 mg/m2, day 5, dose level DL4, median, added: talazoparib 600 µg/m2	–	4830 ng·h/mL
CC1(C)CC[C@]2(NC(=O)C(C)(F)F)CC[C@]3(C)[C@H](C(=O)C=C4[C@@]5(C)C=C(C#N)C(=O)C(C)(C)[C@@H]5CC[C@]43C)[C@@H]2C1	–	human, plasma	oral, 150 mg, single dose alone, geometric mean	–	1730 ng·h/mL
NC[C@@]1(CC(=O)O)[C@@H]2CC[C@H]3C[C@@H]2[C@@H]1C3	–	human, normal renal function, plasma	dose not given, geometric least squares mean	–	1790 ng·h/mL
COC(=O)N[C@@H](C)CNc1nccc(-c2cn(C(C)C)nc2-c2cc(Cl)cc(NS(C)(=O)=O)c2F)n1	–	human, plasma	oral, 50 mg, single dose alone	geometric mean	2050 ng·h/mL
C[C@H]1CN(C(=O)CC#N)[C@]12CCN(c1ncnc3[nH]ccc13)C2	–	healthy human, plasma	oral, 6 mg single, geometric mean	–	211 ng·h/mL
N[C@@H]1c2cccnc2[C@H](OC(=O)N2CCC(n3c(=O)[nH]c4ncccc43)CC2)CC[C@H]1c1cccc(F)c1F	–	human, plasma	oral, dose not given, single dose, mean, added: fluconazole	–	9570 ng·h/mL
Cn1cncc1[C@@](N)(c1ccc(Cl)cc1)c1ccc2c(c1)c(-c1cccc(Cl)c1)cc(=O)n2C	–	human, without dose-limiting toxicity, plasma	oral, dose not given, median	–	5360 ng·h/mL
CC[C@H](Nc1ncnc2[nH]cnc12)c1oc2ccccc2c(=O)c1-c1cccc(F)c1	–	human, plasma	oral, 800 mg twice daily, added: romidepsin 14 mg/m2	–	99000 ± 122000 ng·h/mL
CNC(=O)c1ccc(-c2cnc3ncc(Cc4ccc5ncccc5c4)n3n2)cc1F	–	human mild hepatic impairment	oral, 200 mg single dose, covariate-adjusted geometric mean	–	5750 ng·h/mL

SMILES	test	test system	conditions	how to read	AUC(0-inf)
C[C@@H](Oc1ccc(S(C)(=O)=O)cc1C(=O)N1C[C@@H]2C[C@]2(c2cc(C(F)(F)F)on2)C1)C(F)(F)F	–	healthy human volunteers, fed, plasma	oral, 10 mg single, adjusted geometric mean	–	4.47 µM·h
CCN1CCN(Cc2ccc(Nc3ncc(F)c(-c4cc(F)c5nc(C)n(C(C)C)c5c4)n3)nc2)CC1	–	fasted healthy human subjects, plasma	oral, 200 mg, capsule	–	3680 ng·h/mL
N[C@](CO)(CCc1ccc(Sc2cccc(OCc3ccccc3)c2)cc1Cl)COP(=O)(O)O	–	human, blood	3 mg, mean, added: itraconazole 200 mg once daily	–	181 ng·h/mL
CCOc1cc([C@@H](CS(C)(=O)=O)N2C(=O)c3cccc(NC(C)=O)c3C2=O)ccc1OC	–	healthy human, plasma	oral, 30 mg	–	2470 ng·h/mL
N#C[C@H](C[C@@H]1CCCNC1=O)NC(=O)[C@H](CC1CC1)NC(=O)c1cc2cccc(Cl)c2[nH]1	–	human	oral, 150 mg once daily, day 1	–	3090 ng·h/mL
CC(C)(C)[C@@H]1NC(=O)O[C@@H]2CCC[C@H]2OC/C=C/C(F)(F)c2nc3ccccc3nc2O[C@@H]2C[C@@H](C(=O)N[C@]3(C(=O)NS(=O)(=O)C4(C)CC4)C[C@H]3C(F)F)N(C2)C1=O	–	healthy human subjects, plasma	oral, dose not given, single dose alone	–	3940 ng·h/mL
Cc1cc(C)c(CNC(=O)c2cc(Cl)c3c(c2C)O[C@@](C)([C@H]2CC[C@H](N(C)C)CC2)O3)c(=O)[nH]1	geometric LS mean	healthy male humans, plasma	oral, 25 mg, alone, fluconazole DDI study reference	–	610 ng·h/mL
C[C@@H](Cn1ccc(-c2ccc(C#N)c(Cl)c2)n1)NC(=O)c1cc([C@@H](C)O)[nH]n1	–	healthy male human, plasma	intravenous infusion, 100 µg 14C-labelled, 15 min infusion, microtracer, geometric mean	–	3560 h·pg eq/mL
O=C(O)CCC(=O)O.[2H]C([2H])([2H])Oc1cc(C)c2[nH]ccc2c1CN1CC[C@@H](C2CC2)C[C@H]1c1ccc(C(=O)O)cc1	LC-MS/MS, geometric mean	human, plasma	100 mg, single dose, fasting	–	57900 ng·h/mL
O=C(c1nc2n(n1)[C@H](c1ccccc1)C[C@@H]2F)C1CC1	geometric LS mean	human, high-fat meal, plasma	oral, 75 mg single dose	–	13000 ng·h/mL
C[C@]12C=CC(=O)C=C1CC[C@@H]1[C@@H]2[C@@H](O)C[C@@]2(C)[C@H]1CC[C@]2(O)C(=O)CO	–	human	oral, dose not given	–	2440 ng·h/mL
C=CC(=O)NC1CCN(c2ncc3ncnc(Nc4ccc(Oc5ccc6c(c5)ncn6C)c(C)c4)c3n2)CC1	–	human, male, plasma	oral, 240 mg single dose, fed, geometric mean	–	60 µM·h
CN(CC#N)C(=O)C[C@H](Nc1nc2ccccc2[nH]1)c1cccc(C(F)(F)F)c1	–	human	intravenous infusion, 5 mg/kg, 1 mg/mL formulation	–	20900 ± 4310 ng·h/mL
FC(F)(F)c1ccc(CNc2ccc(Cc3c[nH]c4ncc(Cl)cc34)cn2)cn1	item: total radioactivity	healthy human male, whole blood	oral, 400 mg [14C]-labelled	–	97400 ng·h/mL
N[C@@H](CC(=O)N1CCn2c(nnc2C(F)(F)F)C1)Cc1cc(F)c(F)cc1F	–	male human, plasma	oral, 100 mg single dose	–	3480 ± 635 ng·h/mL
CN1C(=O)[C@@H](NC(=O)c2nnc(Cc3ccccc3)[nH]2)COc2cccnc21	–	healthy human, fasted, plasma	oral, 100 mg single dose, geometric mean	–	17000 ng·h/mL
Cc1cc(Nc2cc3ncccc3c(N[C@@H]3C[C@H]4CC[C@@H](C3)N4CCC#N)n2)n[nH]1	–	human, plasma	300 mg single dose, mean	–	27.9 ng·h/mL
CCCCCCCCCCCCCCCC(=O)N[C@@H](CCC(=O)NCCCC[C@@H]1NC(=O)[C@H]([C@@H](C)CC)NC(=O)[C@@H](NC(=O)[C@@H]2CCCN2C(=O)[C@H](Cc2ccccc2)NC(=O)[C@H](Cc2c[nH]cn2)NC(=O)[C@@H](NC(=O)[C@H](CC(=O)O)NC(=O)CC(C)C)[C@@H](C)O)CSSC[C@@H](C(=O)N[C@@H](CCCCN)C(N)=O)NC(=O)CNC(=O)[C@H](CCCCN)NC(=O)[C@H](CO)NC(=O)[C@H](CCCNC(=N)N)NC(=O)[C@@H]2CCCN2C(=O)[C@H](CCC(=O)O)NC(=O)[C@H](Cc2ccccc2)NC1=O)C(=O)O	–	healthy human, plasma	subcutaneous, 20 mg, single dose, aqueous formulation	–	14300 ± 4580 ng·h/mL
Nc1ncn([C@@H]2O[C@H](CO)[C@@H](O)[C@H]2O)c(=O)n1	–	human	100 mg/m^2, cycle 1 day 1, given alone	–	911 ng·h/mL
CC(=O)O[C@H]1C(=O)[C@@]2(C)[C@H]([C@H](OC(=O)c3ccccc3)[C@]3(O)C[C@H](OC(=O)[C@H](O)[C@@H](NC(=O)c4ccccc4)c4ccccc4)C(C)=C1C3(C)C)[C@]1(OC(C)=O)CO[C@@H]1C[C@@H]2O	–	human, plasma	intravenous infusion, 80 mg/m^2, day 5, with oral co-drug daily	–	4970 ng·h/mL
CC1(COc2ccc3c(c2)ncn3-c2ccc3cccc(N4CCC(N)CC4)c3n2)COC1	–	human patients, recurrent/progressive HGG or DIPG, serum	oral, 220 mg/m^2, day 1, median	–	18.2 µM·h
Cc1[nH]c(/C=C2\C(=O)Nc3ccc(F)cc32)c(C)c1C(=O)N[C@H]1CCN(C(=O)N(C)C)C1	–	human patients, plasma	oral, 100 mg single dose, added: everolimus 5 mg	–	4630 ± 2460 ng·h/mL
C=CC(=O)N(C)CCOc1c(N)ncnc1-c1cc(F)cc(NC(=O)c2ccc(C3CC3)cc2F)c1C	–	human, whole blood	oral, 400 mg, single ascending dose	–	1080 ± 935 ng·h/mL
Cn1cc(-c2ccc(S(=O)(=O)[C@@H]3C[C@@H](C(=O)NC4(C#N)CC4)N(C(=O)C4(C(F)(F)F)CC4)C3)c(C(F)(F)F)c2)cn1	noncompartmental analysis	human, plasma	oral, 200 mg, day 1, with food, geometric mean	–	22300 ng·h/mL
C#C[C@]1(CO)O[C@@H](n2cnc3c(N)nc(F)nc32)C[C@@H]1O	–	human, plasma	oral, 200 mg, single dose, geometric mean	–	25 µM·h
FC(F)(F)c1ccc(CNc2ccc(Cc3c[nH]c4ncc(Cl)cc34)cn2)cn1	–	human, plasma	oral, dose not given, added: itraconazole	–	135000 ng·h/mL

Repeated from above:
SMILES	test	test system	conditions	how to read	AUC(0-inf)
O=C(c1nc2n(n1)[C@H](c1ccccc1)C[C@@H]2F)C1CC1	geometric LS mean	human, high-fat meal, plasma	oral, 75 mg single dose	–	13000 ng·h/mL
N#Cc1cccc(-c2ccc3ncc(-c4cc(F)cc(F)c4)c(N4CCC(N)CC4)c3c2)c1O	–	human, plasma	oral, 20 mg single dose, geometric mean	–	2700 ng·h/mL
N[C@]1(C(=O)O)[C@H]2[C@@H](C[C@@H]1F)[C@@H]2C(=O)O	–	human, both sexes, plasma	oral, 10 mg, fed, single dose	–	383 ng·h/mL
Nc1ccn([C@@H]2O[C@H](CO)[C@@H](O)C2(F)F)c(=O)n1	–	human, plasma	dose not given, mean, before paricalcitol	–	17500 ng·h/mL
CNC(=O)n1ccc2cc(Oc3ccnc(NC(=O)c4ccc(C5CCN(CCO)CC5)cc4)c3)c(OCCOC)cc21	–	healthy human, plasma	oral, 35 mg, geometric mean, alone	–	108 ng·h/mL
C[C@H]1CN(C(=O)CC#N)[C@]12CCN(c1ncnc3[nH]ccc13)C2	–	healthy human, plasma	oral, 6 mg single, geometric mean	–	211 ng·h/mL
